# Assay results collected from several papers.
# A part holds a random share of what one study measured. Positions count from the first letter of the parent shown.

# Sample 1
# Target: RNA binding protein fox-1 homolog 2, RRM domain, GST-SBP tag (RBFOX2, Homo sapiens, UniProt O43251-10, residues 100-194)
# Technique: RNA Bind-n-Seq
# Form: RNA
# Sample: in vitro
# Tested at: 365 nM
# Setting: natural RNA segment, single round, ends assumed
# Reference: no-protein control
# Direction: higher = stronger binding
# Target sequence (chain): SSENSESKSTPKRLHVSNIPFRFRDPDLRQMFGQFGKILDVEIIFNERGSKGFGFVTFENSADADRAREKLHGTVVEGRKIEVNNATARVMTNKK
Oligonucleotide,RBNS enrichment (R)
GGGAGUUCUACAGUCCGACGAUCAGGGACAACUUUUAAGGAGGCGUGUCCCUGGUAGGGGCAUCCCUGUUCACCAGGUGCCUGUCAUCACCCCACUUGACUGACAUCUACCCUGGUGACUAUGGGUUCCUCUUUGGAAUUCUCGGGUGCCAA,0.194
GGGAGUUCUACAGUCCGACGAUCUGCAGGUCCAAGACCUGGACUCCUGCUUCAGCCCAGGCCAGUACUCCUUGUCUGAGGUGAAAGCCUUCAGUUUAGCUCCCUGGCCCUUGUGUGGAAGCAAUGUGGAGUGAUGGAAUUCUCGGGUGCCAA,0.335
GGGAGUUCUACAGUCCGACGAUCUGUUUUUGCUUUUCCUUCAGGGUUUUAUUUUUGACUGUUUUGUUUUCUUGUUGGCCAUUUCUGUAUUGCUGGCAUCUGUGCUAAGCUUUACAGUGGCAAAAAUAAUGACAUGGAAUUCUCGGGUGCCAA,1.46
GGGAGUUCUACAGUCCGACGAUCACAUACUCAAGUGCACACCACAGCCCGAGGUGGAGACCUGGGCCACACCCUUCCCCUCCUGACAUCUUUAGUUUGGAGCACACAGAGGAAAUAGAACCUAAACACAUGCCUGGAAUUCUCGGGUGCCAA,0.518
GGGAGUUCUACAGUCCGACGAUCUCGGCAGCGGGCCAACUGUGGUUUCUCUCUUGCCAUGAUGACUUCUAAUUGCCAUGUAUAGUAUGUUCGGUUAGAUAACUCACUGUAAACAGACUGUAACUGCCAGGCAGUGGAAUUCUCGGGUGCCAA,0.345
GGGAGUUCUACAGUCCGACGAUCAAGCAAACUAAGUCAAGAACCGUAGUAUCUGUAGGCACUUAGUUAAGUAUAGCAACUCAAACCAGACCUGCAUCCAUCCGAGACAAACGUUCCUCCUUCACCCUUGUUUUUGGAAUUCUCGGGUGCCAA,0.495
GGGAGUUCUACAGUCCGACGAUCAUUGUAAAAAGUUUUAGUUUUGAUGAGUUGUGAGUUUACCUUGUAUACUGUAGGCACACUUUGCACUGAUAUAUCAUGAGUGAAUAAAUGUCUUGCCUACUCACGUCUCAUGGAAUUCUCGGGUGCCAA,1.03
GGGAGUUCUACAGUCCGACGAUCCCAGCGCCCCCGGGCACUGCUGCUCAUAGGUACCUUUCCACUGCCUCCUCCCUGCUCUCCUGUGCAGGAAUGUCUCUGAGCUGUUCACGUUGAUGCUUCUUGGUUGGCAAUGGAAUUCUCGGGUGCCAA,0.763
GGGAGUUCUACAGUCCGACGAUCCAGGUAAUACAGAUACUGGCACUGAUUGUAAUUAAAAUGAGAGAAAACUCUAGCGCAUCUUCUGGCACGGUUUUAACAACGUGUUUGUGUUGAAUUUCCUUUUUAUGCAUUGGAAUUCUCGGGUGCCAA,1.11
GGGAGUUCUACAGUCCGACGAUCUUUUGGCUCUGAAGAAGCAAACAUGACUAGAGACGCACCUUGCUGCAGUGUCCAGAAGCGGCCUGUGCGUUCCCUUCAGUACUGCAGCGCCACCCAGUGGAAGGACACUCUGGAAUUCUCGGGUGCCAA,0.376
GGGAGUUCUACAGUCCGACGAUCCCGCACCAGAGCCACGGGCUGUGGGGCGGGGAGCCCUCCCCCGCUGCAGCCCUCUCAGAACAGAGGGGUAGGGAGGGUGCACCAGUGCACCAGGAAGGCUGUGUGGGUCUUGGAAUUCUCGGGUGCCAA,0.297
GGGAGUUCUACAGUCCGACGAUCAGAGCCCACUUACUCCUCCUCGUUCUAGGACACGGUCAUCUUUCCUUAGGAAAUUAAAAUGCUUCAUAUUAUCUGGGCAUGGUGGUGCACCCCUGUAGUCUCAGAACUCUUGGAAUUCUCGGGUGCCAA,0.393

# Sample 2
# Target: FOS, bZIP domain (human)
# Technique: DHFR protein complementation
# Sample: yeast
# Setting: single substitutions, most at no-binding floor
# Reference: wild-type JUN-FOS pair
# Direction: higher = stronger binding
# Parent: JUN, bZIP domain (human); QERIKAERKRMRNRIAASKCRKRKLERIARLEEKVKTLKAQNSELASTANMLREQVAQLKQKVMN; partner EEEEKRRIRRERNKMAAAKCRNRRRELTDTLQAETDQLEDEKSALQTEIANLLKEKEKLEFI
Substitution,binding fitness
E33C,-0.307 natural log
V56L,-0.492 natural log
E44M,-0.0537 natural log
S47E,0.118 natural log
K34V,-0.284 natural log
Q58P,-1.45 natural log
T48D,-0.463 natural log
A46D,-0.753 natural log
K39W,-1.14 natural log
S43L,-0.0304 natural log
L52D,-1.46 natural log
L59R,-1.21 natural log
M51A,0.0669 natural log
T37C,-0.0489 natural log
V56S,-1.29 natural log
A57S,-0.172 natural log

# Sample 3
# Target: Eukaryotic initiation factor 4A-I (EIF4A1, Homo sapiens, UniProt P60842, residues 1-406, full length assumed)
# Sequence of UniProt P60842 (whole entry, looked up): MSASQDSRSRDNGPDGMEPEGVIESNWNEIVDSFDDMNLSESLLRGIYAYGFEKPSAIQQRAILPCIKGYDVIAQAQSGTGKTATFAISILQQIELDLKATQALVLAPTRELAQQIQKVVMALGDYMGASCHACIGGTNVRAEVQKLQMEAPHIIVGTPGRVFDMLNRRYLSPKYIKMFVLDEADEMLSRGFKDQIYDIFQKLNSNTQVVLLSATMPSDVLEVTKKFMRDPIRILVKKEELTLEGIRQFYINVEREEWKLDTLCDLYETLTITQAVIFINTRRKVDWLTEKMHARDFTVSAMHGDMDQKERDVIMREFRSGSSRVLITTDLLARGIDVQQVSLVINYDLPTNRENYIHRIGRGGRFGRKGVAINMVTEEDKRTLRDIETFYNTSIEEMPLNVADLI
# Technique: RNA Bind-n-Seq
# Form: RNA
# Sample: in vitro
# Tested at: not given
# Setting: 4-mer, random 30-nt RNA, single round
# With: RocA, ADP, phosphate
# Reference: input library
# Direction: higher = stronger binding
Oligonucleotide,4-mer enrichment
AGUC,1.03 fold
CUAC,0.565 fold
GAAU,1.46 fold
CGUA,0.772 fold
GCAA,0.935 fold
ACUG,0.754 fold
AUCA,0.713 fold
GACG,0.86 fold
UCAU,0.634 fold
CAUA,0.747 fold
UAGU,0.972 fold
AAAU,1.12 fold
AUUA,0.947 fold
GCCG,0.717 fold
UCGU,0.687 fold
UUGU,0.968 fold
CGCA,0.686 fold
AGAU,1.39 fold
CAGU,0.777 fold

# Sample 4
# Target: Interferon regulatory factor 7, full length, phosphomimetic (IRF7, Homo sapiens, UniProt Q92985, residues 1-503, S101K/S471D/S472D/S475D/S476D/S477D/S483D/S484D/S487D)
# Sequence of UniProt Q92985 (whole entry, unmodified, looked up): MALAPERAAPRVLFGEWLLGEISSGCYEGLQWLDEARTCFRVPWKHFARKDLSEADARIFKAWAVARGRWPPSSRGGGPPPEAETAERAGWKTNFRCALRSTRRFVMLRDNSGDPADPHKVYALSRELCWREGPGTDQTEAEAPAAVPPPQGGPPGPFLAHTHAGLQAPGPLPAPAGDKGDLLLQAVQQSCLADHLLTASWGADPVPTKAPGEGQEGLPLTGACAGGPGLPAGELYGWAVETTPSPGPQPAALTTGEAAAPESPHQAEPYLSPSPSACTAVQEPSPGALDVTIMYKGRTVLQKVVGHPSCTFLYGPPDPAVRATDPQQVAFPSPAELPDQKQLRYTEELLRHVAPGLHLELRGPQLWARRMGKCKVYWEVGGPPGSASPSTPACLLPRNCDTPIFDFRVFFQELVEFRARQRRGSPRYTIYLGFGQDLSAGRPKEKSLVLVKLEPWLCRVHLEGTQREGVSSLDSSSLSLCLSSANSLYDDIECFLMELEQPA
# Technique: protein-binding microarray
# Form: double-stranded DNA, one strand shown
# Sample: in vitro
# Tested at: 250 nM
# Setting: 60-bp whole probe
# With: salmon DNA 0.4 mg/ml
# Reference: random background probes
# Direction: higher = stronger binding
# All sequences stand within: GCCTAGCAC … GTCTTGATTCGCTTGACGCTGCTG
Oligonucleotide,log fluorescence
TTAGCTTCCCTTTTCCTTTAGTGCTAG,1.26 z-score
TTAGGTATCGACTTTCGGTGAGTGCTA,1.37 z-score
TTAGGTTACGGGTTTCGGTTAGTGCTA,6.65 z-score
GACGGTATCCTACTGCCGACGTGCTAG,-0.102 z-score
TTTGGTTTCCTTTTCCTTTAGTGCTAG,8.38 z-score
GACGGTTTCAGTTCCGGGACGTGCTAG,3.65 z-score
GACGATTTCGGGTAACGAGACGTGCTA,0.615 z-score
TCATGCTTTCATTTATTACTGTGCTAG,0.445 z-score
TACAGGTTCTCTTTTATTTTGTGCTAG,1.37 z-score
GACGGTTCCCTTTACCTGACGTGCTAG,1.21 z-score
ATAGTGATAGCTCTGGTAAAGTGCTAG,-1.02 z-score
TGAGGTCTCGGTATCGGTTAGTGCTAG,2.6 z-score
TCATATGTGTATATATAACTGTGCTAG,0.152 z-score
TTTAGGTCCCTTTTCATGCTGTGCTAG,2.32 z-score
TCAGGTATCGACACTGGGTTAGTGCTA,-0.116 z-score
GACGATTTCGGGACTGCAGACGTGCTA,0.167 z-score
ACCACTTTCCATTTCTGTTTGTGCTAG,3.43 z-score

# Sample 5
# Target: Protein C-ets-1 (ETS1, Homo sapiens, UniProt P14921, residues 1-441, full length assumed)
# Technique: protein-binding microarray
# Form: double-stranded DNA, one strand shown
# Sample: in vitro
# Tested at: not given
# Setting: k-mer, scored over probes, only values ≥0.25
# Direction: higher = stronger binding
# Construct (chain): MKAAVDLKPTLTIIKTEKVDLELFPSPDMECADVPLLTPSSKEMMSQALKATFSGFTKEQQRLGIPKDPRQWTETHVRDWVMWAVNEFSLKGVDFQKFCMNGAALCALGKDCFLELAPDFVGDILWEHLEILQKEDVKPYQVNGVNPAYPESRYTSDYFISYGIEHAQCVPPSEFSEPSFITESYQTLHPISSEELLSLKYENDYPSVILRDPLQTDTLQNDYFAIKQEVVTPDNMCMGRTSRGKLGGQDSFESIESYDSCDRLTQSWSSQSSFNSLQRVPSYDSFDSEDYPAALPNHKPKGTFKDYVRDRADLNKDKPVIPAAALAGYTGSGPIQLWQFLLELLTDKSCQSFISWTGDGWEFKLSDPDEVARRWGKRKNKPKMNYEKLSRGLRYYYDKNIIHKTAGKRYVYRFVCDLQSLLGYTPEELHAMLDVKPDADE
Oligonucleotide,E-score
AGCGGATG,0.466
ACCATCCG,0.404
CAGATCCG,0.283
GGGATGTA,0.36
GAAGTGCC,0.319
ACTTCCCT,0.389
CATCCTAG,0.253
TTAGGAAA,0.279
CAGGATGG,0.402
GCGGATAA,0.261
GCGGAAAC,0.473
AGGATGCG,0.413
AGGTATCC,0.319
CATCCTGC,0.456
ATCGGAAA,0.406

# Repeated from above (sample 5):
Oligonucleotide,E-score
GCGGATAA,0.261
GCGGAAAC,0.473
AGGATGCG,0.413
AGGTATCC,0.319
